Experimental data from different studies.
Every numbered part comes from another study and shows a few of its results, in no order.

Block 1
Target: Centromere-binding protein 1, full length, N-terminal tag (CBF1, Saccharomyces cerevisiae, UniProt P17106, residues 1-351)
UniProt P17106, sequence (whole entry, looked up): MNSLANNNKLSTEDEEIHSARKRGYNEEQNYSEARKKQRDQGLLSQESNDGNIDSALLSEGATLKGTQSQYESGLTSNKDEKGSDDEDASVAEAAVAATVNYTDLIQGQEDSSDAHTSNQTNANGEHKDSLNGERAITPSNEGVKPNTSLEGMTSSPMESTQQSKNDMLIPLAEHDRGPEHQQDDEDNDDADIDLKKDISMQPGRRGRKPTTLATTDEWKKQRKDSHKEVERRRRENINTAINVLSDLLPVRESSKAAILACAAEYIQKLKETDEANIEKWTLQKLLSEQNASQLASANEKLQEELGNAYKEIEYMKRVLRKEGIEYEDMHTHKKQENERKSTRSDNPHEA
Technique: protein-binding microarray
Form: double-stranded DNA, one strand shown
Matrix: in vitro
Concentration: 0.8 µM
Setting: whole 60-bp probe, no competitor
Direction: higher = stronger binding
The fluorescence intensity of `GAATTGCGGTTTTGTCACCTTAGTCAGCTAGTATAGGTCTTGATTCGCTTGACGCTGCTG` is reported as 560 a.u.
For `GAACGTCTGTGCATCTACGTGAACACACCAGGGTAGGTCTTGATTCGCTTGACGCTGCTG`, the fluorescence intensity was 543 a.u.
`CTAAAAAGTTCCCCCCTCGTGGCCAGCGACGTTTTCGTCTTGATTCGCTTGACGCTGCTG` has a fluorescence intensity of 491 a.u.
The fluorescence intensity of `GAACCTACATACTTGATCGTGACTTCTTGATTCTAGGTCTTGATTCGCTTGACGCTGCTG` is reported as 779 a.u.
`CTATTTTTCGGGGCGCCCGTGCAAAAACTAACTTTCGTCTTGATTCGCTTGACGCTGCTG` has a fluorescence intensity of 557 a.u.
`CTACGACTCCCAACACACGTTTAATGTTGTACGTTCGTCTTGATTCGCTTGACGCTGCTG` gave a fluorescence intensity of 544 a.u.
`GAAACTGTCACGATTGACCTGATGCAAAGGAAATAGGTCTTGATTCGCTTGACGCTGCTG` gave a fluorescence intensity of 822 a.u.
With `GAATTCTTCTTCGCCCACGTTAAATTTTATCCCTAGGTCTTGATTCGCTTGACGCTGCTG` the fluorescence intensity was 555 a.u.
With `CTAGCGGACAAAATTACCGTCACGTTCAAAAGTTTCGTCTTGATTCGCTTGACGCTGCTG` the fluorescence intensity was 1680 a.u.
`CTATAATAAATAGTACACGTTGCAGACATATTTTTCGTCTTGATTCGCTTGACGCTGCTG` gave a fluorescence intensity of 638 a.u.
For `GAAATTTGAAGTCATCACGTTTGCCCACATCAATAGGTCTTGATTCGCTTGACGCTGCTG`, the fluorescence intensity was 781 a.u.
`TGTACGAAGCTATTTCACCAGATTATAGTAGTTAGGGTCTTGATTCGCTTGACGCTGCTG` has a fluorescence intensity of 524 a.u.
`CTAAGCTAAGTAACCAACGTGGTGCCATATTCATTCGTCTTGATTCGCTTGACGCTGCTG` has a fluorescence intensity of 590 a.u.
For `CTAAATTCACTACGTGACATGATTGGTTGGTGCTTCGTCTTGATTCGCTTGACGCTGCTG`, the fluorescence intensity was 851 a.u.
For `GAAGAAGAAGGACGTCACCCCTGCATTCCCAAATAGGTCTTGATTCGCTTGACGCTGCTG`, the fluorescence intensity was 502 a.u.
For `GAATATGAAAAAGATCATGAGAAAATCGCAGAATAGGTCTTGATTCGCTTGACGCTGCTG`, the fluorescence intensity was 590 a.u.
The fluorescence intensity of `CCTAACTACTATAATTGCATGACATAGCTTCGTACAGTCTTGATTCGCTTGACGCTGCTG` is reported as 544 a.u.
The fluorescence intensity of `GAAGCATACACTTTACACATGGCTAACCCAATCTAGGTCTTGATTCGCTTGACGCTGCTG` is reported as 555 a.u.
The fluorescence intensity of `CTACAAATTTAACATCATGCCGGCATTGAATCATTCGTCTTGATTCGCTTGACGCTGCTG` is reported as 574 a.u.

Block 2
Target: Sal-like protein 4, full length isoform B (SALL4, Homo sapiens, UniProt Q9UJQ4-2, residues 1-616)
Technique: universal PBM
Form: double-stranded DNA, one strand shown
Matrix: in vitro
Concentration: not given
Setting: 8-mer, flanks averaged, mean of replicates
Direction: higher = stronger binding
Construct (chain): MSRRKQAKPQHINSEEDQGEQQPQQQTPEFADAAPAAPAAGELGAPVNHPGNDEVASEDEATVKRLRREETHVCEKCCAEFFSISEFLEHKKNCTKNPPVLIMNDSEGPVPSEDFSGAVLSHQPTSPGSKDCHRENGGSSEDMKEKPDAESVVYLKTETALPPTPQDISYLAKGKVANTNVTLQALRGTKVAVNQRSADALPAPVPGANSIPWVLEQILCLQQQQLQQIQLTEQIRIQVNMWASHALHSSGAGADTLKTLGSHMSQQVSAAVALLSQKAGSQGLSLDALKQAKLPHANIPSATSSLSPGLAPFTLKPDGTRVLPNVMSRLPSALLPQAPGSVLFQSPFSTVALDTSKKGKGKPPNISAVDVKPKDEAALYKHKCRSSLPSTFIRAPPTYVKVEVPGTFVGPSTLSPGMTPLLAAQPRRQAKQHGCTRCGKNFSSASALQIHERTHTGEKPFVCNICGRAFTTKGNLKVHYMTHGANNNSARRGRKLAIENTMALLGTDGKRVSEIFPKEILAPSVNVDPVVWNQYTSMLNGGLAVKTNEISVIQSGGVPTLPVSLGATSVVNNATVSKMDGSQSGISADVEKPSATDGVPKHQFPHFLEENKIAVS
With `CAACTAGC` the E-score was -0.0232.
For `GCTGACAA`, the E-score was 0.0364.
`CCAGGAGC` gave an E-score of -0.344.
`GGCTTTAC` has an E-score of -0.0533.
`AGCAGGCT` gave an E-score of -0.201.
The E-score of `ATTTGCAC` is reported as 0.139.
With `AGGCTGCG` the E-score was -0.22.
The E-score of `TAAACACA` is reported as 0.188.
`ATGCTTAG` gave an E-score of 0.179.
`AGTGCCAG` gave an E-score of -0.295.
For `ATTCGGGA`, the E-score was -0.091.
For `CATCGTCA`, the E-score was 0.0638.
`ACGCATAA` gave an E-score of 0.252.
With `CGGTATGC` the E-score was -0.19.
`TTTAGAAA` has an E-score of 0.289.
With `ATTATTCA` the E-score was 0.357.
For `AAGAAACG`, the E-score was -0.0261.
For `TCTCCGAA`, the E-score was -0.148.
`ATTGTGAC` gave an E-score of 0.031.
The E-score of `CGACTTGC` is reported as -0.152.
The E-score of `GCGCTTGA` is reported as -0.0572.
The E-score of `AGACAAAT` is reported as 0.253.
The E-score of `ACGAAGGC` is reported as -0.293.
With `TAGGTTAA` the E-score was 0.149.

Block 3
Target: Interferon regulatory factor 5, full length, phosphomimetic (IRF5, Homo sapiens, UniProt Q13568-2, residues 1-514, K96S/S451D/S453D/S456D/S462D)
Technique: protein-binding microarray
Form: double-stranded DNA, one strand shown
Matrix: in vitro
Concentration: 250 nM
Setting: 60-bp whole probe
Added: salmon DNA 0.4 mg/ml
Relative to: random background probes
Direction: higher = stronger binding
All sequences stand within: GCCTAGCAC … GTCTTGATTCGCTTGACGCTGCTG
The log fluorescence of `TTAGGTATCGACTATCGGCTAGTGCTA` is reported as 5.66 z-score.
The log fluorescence of `TTAGTTTTCAGTCTCGATTAGTGCTAG` is reported as 4.04 z-score.
The log fluorescence of `TTAGATATCTTTTTCCTAATGTGCTAG` is reported as 0.979 z-score.
With `GACGGGTTCGGGACTGGGGACGTGCTA` the log fluorescence was -0.623 z-score.
With `GACGGACTGGGTATAGGGACGTGCTAG` the log fluorescence was -0.619 z-score.
The log fluorescence of `TTAGGACTGGGGACTGGATTAGTGCTA` is reported as -0.596 z-score.
`TCAATGTTCACTATTTAACTGTGCTAG` has a log fluorescence of 0.718 z-score.
With `GACGATTTCAGTATCGAGGCGTGCTAG` the log fluorescence was 2.76 z-score.
The log fluorescence of `GACGATACCAGTTTCGAGACGTGCTAG` is reported as 6.12 z-score.
For `GACGGTTTCGTCTTTCGGGACGTGCTA`, the log fluorescence was 6.34 z-score.
`GGGCGGGTGCCAACTCTTAGGTGCTAG` gave a log fluorescence of -0.901 z-score.
`GGCGATCTCAGACTGGAGACGTGCTAG` has a log fluorescence of -0.815 z-score.
`CTTTTTATGCTTTCTTTAACTGTGCTA` has a log fluorescence of 1.84 z-score.
With `TTAGATTTCAGTTCCGATTAGTGCTAG` the log fluorescence was 2.98 z-score.
The log fluorescence of `GACGGTATCCTTTGCCTGACGTGCTAG` is reported as -0.0823 z-score.
For `TTAGATATCAGTTTCGATTGGTGCTAG`, the log fluorescence was 10.2 z-score.
`TTTGCTTTCATTTATTTACTGTGCTAG` gave a log fluorescence of 5.57 z-score.
`TCACTTTTTGCTTTCTTACTGTGCTAG` gave a log fluorescence of 2.34 z-score.
For `TTAGGTTGCGGGTATCGGTTAGTGCTA`, the log fluorescence was 3.36 z-score.

Block 4
Target: RNA binding protein fox-1 homolog 2, RRM domain, GST-SBP tag (RBFOX2, Homo sapiens, UniProt O43251-10, residues 100-194)
Technique: RNA Bind-n-Seq
Form: RNA
Matrix: in vitro
Concentration: 365 nM
Setting: natural RNA segment, single round, ends assumed
Relative to: no-protein control
Direction: higher = stronger binding
Residues (chain): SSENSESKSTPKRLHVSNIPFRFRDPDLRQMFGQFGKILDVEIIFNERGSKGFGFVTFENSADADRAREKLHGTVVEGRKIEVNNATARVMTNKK
`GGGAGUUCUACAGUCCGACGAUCGUGUCUCUUUGGGAGAUGGUGUUCAAGUGGGAUACCUAAGUCUUCCCGUGGCUAGAUCCAGAGCAGAUUCAGCCGGCUCAUUUCCAAGGGCUGGGCCACUGCACAGUUUGUGGAAUUCUCGGGUGCCAA` — result for “RBNS enrichment (R)”: 0.304.
Under “RBNS enrichment (R)”, `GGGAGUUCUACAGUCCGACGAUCCCUGUAUAUCAUGGUAUCUGUGGGCAUAUGUCUGUUUCUUAUAAAGACACAUAUUUGUGUGUGUAUGUGUGUGUGUGUGUGUGUGUGUGUAUAAGCAUACAUGGGAAUUUUGGAAUUCUCGGGUGCCAA` is recorded as 4.
`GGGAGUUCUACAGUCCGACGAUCCGGACAGGUCCCGCAGCGCGUCCCCGUAGACCCGUCCCAGACACGUCUUUUCAUUCCAGUCCAGUUCAGGCUGCCGUGCACUUUGUCGGAUAUAAAAUAAACCACGGGCCUGGAAUUCUCGGGUGCCAA`: “RBNS enrichment (R)” 0.465.
`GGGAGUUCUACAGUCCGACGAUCGAACCUCCAACAUGCCGAGCAGACGCAGGCCACAUUGCUCGGGGAACAGGACACCAGGGCGCUGUGCUAGCGGCCCGCAGACUUCACUUCUGGCUCCUGUGAGGGCACUGUGGAAUUCUCGGGUGCCAA`: “RBNS enrichment (R)” 0.566.
Under “RBNS enrichment (R)”, `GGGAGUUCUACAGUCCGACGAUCCACAGGUGCUUAAAGGACACUUUCAGAAGAAGCUGAAGGCCUUGAGGUCUGCCCACCCAGCUGAUCUCGGAGUCCUGGCCCCAGUCCAUGUGUAGCUCUAAGAACAUGAAUGGAAUUCUCGGGUGCCAA` is recorded as 0.449.
For `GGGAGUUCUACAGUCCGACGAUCAGCCCUUCAGAAGGGCUCAACUACUGUCCUAUACAAUCAAGUGACUGAAAUUCCUGGGAAGACACUUUGCUCCUCACCUAACCCCACCCCCAUCCCUAAACGAUGUUGUUUGGAAUUCUCGGGUGCCAA`, “RBNS enrichment (R)” read 0.356.
`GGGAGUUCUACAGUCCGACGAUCAUGUCUGCUUACUCACAAAAACAGAUAGUGGCUUAGGAAUUGUGGUUAUAUCCAGUUAUACAGGCGAGGAGGGGCUGUGGUAAAGACAGAUUAAAAGGAACAAAUGAAGUUGGAAUUCUCGGGUGCCAA` — result for “RBNS enrichment (R)”: 1.03.
Under “RBNS enrichment (R)”, `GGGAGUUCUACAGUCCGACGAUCCUCAGGACCCUCUUCCCUCAGGGGCUGCACCCUCCUCUCACUCCCUUCCAUGCCGGAACCCAGGCCAGGGACCCACCGGCCUGUGGUUUGUGGGAAAGCAGGGUGGACGCUGGAAUUCUCGGGUGCCAA` is recorded as 0.334.

Repeated from above (block 3):
The log fluorescence of `TTAGGTATCGACTATCGGCTAGTGCTA` is reported as 5.66 z-score.
With `TTAGATTTCAGTTCCGATTAGTGCTAG` the log fluorescence was 2.98 z-score.
The log fluorescence of `GACGGTATCCTTTGCCTGACGTGCTAG` is reported as -0.0823 z-score.
`TCAATGTTCACTATTTAACTGTGCTAG` has a log fluorescence of 0.718 z-score.
With `GACGGACTGGGTATAGGGACGTGCTAG` the log fluorescence was -0.619 z-score.
The log fluorescence of `GACGATACCAGTTTCGAGACGTGCTAG` is reported as 6.12 z-score.
The log fluorescence of `TTAGATATCTTTTTCCTAATGTGCTAG` is reported as 0.979 z-score.
With `GACGGGTTCGGGACTGGGGACGTGCTA` the log fluorescence was -0.623 z-score.
The log fluorescence of `TTAGTTTTCAGTCTCGATTAGTGCTAG` is reported as 4.04 z-score.
The log fluorescence of `TTAGGACTGGGGACTGGATTAGTGCTA` is reported as -0.596 z-score.
